Measurements pooled from the literature.
Parts stem from different laboratories: compare values within a part only. Values joined by “and” are separate records of one study, mostly repeats; a detail may differ.
UniProt Q9BYT3, sequence (whole entry, looked up): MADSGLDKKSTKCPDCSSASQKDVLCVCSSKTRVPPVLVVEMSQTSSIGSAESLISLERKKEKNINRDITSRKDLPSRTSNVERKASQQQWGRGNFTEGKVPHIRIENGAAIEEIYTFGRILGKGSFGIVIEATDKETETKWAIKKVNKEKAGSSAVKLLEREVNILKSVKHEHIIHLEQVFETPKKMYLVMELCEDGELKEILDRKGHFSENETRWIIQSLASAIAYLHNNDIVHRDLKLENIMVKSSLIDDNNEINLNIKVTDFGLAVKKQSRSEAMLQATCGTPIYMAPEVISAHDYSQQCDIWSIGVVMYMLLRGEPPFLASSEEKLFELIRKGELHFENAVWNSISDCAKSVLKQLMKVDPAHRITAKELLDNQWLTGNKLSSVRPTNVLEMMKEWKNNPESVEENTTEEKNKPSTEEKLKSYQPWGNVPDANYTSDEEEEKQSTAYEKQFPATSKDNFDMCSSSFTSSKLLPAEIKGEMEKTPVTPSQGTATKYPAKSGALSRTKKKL
UniProt Q9Y2K2, sequence (whole entry, looked up): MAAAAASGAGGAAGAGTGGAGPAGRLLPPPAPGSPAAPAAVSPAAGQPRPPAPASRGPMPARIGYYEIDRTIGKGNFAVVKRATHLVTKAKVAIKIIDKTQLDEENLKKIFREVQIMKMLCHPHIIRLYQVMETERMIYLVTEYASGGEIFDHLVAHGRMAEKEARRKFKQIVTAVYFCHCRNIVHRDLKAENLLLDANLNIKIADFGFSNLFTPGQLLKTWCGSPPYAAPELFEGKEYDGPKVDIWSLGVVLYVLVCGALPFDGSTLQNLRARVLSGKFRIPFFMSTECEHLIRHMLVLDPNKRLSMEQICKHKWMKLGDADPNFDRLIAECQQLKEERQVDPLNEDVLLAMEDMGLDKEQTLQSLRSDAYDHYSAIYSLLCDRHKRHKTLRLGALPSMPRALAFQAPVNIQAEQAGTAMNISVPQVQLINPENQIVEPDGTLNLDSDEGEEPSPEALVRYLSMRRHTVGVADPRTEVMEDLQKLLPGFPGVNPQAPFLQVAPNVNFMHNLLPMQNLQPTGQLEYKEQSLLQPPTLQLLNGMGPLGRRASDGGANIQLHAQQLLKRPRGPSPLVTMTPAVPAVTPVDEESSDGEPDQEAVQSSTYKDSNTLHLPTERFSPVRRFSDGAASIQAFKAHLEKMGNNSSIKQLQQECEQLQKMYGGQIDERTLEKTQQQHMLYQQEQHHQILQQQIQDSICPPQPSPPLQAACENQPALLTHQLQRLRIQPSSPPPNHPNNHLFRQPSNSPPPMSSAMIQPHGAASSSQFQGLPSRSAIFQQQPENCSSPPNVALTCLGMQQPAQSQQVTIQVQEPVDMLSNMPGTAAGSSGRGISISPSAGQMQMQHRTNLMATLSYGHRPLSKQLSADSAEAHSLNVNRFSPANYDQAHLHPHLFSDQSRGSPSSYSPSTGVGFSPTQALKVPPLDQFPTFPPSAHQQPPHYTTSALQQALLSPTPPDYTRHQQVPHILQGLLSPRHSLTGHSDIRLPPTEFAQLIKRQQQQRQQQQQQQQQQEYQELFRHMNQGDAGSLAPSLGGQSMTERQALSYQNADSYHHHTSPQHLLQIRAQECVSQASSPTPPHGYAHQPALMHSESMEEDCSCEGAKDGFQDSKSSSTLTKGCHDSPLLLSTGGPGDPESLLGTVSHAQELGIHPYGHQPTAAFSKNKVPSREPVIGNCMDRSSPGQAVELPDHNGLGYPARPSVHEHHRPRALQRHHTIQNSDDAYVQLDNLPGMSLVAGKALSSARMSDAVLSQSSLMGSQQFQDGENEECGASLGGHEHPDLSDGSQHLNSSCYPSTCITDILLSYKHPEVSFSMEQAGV
UniProt Q9BXA6, sequence (whole entry, looked up): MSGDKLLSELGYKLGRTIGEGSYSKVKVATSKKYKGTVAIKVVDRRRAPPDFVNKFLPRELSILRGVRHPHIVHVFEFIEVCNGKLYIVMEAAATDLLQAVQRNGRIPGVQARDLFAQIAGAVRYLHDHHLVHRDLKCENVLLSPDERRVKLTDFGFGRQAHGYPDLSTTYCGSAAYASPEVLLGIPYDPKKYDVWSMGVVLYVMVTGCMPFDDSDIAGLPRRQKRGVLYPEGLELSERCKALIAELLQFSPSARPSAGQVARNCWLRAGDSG
UniProt P78356, sequence (whole entry, looked up): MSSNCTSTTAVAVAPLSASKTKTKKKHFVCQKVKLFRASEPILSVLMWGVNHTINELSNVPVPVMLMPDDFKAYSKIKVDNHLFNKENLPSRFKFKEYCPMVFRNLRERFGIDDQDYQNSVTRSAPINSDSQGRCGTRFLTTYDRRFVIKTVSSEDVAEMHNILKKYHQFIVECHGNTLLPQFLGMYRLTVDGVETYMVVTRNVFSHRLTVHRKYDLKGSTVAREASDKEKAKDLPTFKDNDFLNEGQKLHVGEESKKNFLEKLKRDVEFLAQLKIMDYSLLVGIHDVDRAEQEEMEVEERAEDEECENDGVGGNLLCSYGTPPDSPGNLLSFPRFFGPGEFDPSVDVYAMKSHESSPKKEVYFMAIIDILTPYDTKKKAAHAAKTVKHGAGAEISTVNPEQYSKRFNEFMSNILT
UniProt P35968, sequence (whole entry, looked up): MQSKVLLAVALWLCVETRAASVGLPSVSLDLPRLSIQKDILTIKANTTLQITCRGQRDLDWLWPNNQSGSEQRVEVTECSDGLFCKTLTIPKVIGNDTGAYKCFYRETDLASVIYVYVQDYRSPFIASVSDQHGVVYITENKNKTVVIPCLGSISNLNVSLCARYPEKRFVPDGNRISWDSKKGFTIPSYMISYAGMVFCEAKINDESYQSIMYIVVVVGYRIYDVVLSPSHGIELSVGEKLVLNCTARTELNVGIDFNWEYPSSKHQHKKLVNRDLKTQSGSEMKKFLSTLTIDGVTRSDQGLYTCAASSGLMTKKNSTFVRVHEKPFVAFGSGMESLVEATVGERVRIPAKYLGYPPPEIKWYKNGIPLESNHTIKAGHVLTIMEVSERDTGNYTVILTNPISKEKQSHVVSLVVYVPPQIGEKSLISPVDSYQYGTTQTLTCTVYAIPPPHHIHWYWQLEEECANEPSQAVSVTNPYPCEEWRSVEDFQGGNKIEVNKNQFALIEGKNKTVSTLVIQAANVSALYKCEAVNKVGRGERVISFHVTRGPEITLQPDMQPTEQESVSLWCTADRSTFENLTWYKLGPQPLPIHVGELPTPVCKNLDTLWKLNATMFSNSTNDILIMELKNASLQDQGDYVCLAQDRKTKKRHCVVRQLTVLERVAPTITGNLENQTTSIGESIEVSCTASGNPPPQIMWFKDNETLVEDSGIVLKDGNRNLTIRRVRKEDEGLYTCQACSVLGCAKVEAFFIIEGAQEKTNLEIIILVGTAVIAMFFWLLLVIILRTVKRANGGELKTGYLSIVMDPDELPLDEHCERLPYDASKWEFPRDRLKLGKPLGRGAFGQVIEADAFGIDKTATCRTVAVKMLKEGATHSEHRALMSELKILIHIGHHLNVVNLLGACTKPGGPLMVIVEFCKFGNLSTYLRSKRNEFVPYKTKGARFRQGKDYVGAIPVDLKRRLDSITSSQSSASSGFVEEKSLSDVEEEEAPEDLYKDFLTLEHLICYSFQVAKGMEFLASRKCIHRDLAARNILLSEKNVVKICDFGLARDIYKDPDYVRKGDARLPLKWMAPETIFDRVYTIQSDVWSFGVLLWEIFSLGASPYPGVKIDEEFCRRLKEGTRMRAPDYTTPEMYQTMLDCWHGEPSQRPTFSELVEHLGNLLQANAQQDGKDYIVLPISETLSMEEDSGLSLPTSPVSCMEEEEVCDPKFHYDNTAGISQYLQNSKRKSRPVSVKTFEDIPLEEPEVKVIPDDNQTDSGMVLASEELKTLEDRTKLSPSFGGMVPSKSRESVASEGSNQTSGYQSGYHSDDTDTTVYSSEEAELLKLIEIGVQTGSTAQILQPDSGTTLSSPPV
UniProt P45983, sequence (whole entry, looked up): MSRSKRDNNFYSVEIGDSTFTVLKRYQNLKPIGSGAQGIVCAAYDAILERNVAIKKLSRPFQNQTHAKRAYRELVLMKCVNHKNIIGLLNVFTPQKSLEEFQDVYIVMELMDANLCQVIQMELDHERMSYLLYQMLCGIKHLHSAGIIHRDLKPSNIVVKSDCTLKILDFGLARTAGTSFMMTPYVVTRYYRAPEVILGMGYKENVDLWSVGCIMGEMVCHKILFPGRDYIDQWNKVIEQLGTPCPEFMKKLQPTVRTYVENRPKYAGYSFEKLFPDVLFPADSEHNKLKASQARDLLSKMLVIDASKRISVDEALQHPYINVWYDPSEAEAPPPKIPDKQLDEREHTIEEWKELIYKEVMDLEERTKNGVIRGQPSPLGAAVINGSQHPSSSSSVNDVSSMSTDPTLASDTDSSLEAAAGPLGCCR
UniProt P0C1S8, sequence (whole entry, looked up): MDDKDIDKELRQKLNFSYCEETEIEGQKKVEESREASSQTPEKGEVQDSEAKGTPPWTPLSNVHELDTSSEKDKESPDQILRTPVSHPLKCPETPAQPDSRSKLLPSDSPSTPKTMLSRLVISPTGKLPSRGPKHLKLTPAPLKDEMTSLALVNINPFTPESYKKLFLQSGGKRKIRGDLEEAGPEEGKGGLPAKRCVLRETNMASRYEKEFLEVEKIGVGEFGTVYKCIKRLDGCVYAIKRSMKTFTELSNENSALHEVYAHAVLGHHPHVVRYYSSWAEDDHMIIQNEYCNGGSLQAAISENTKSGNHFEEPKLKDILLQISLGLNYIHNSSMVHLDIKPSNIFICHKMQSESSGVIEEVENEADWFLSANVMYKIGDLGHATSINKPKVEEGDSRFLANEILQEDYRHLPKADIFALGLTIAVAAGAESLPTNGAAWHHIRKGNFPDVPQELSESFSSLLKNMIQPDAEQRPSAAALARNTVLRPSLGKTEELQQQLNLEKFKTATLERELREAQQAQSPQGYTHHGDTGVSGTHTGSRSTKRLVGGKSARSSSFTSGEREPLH

Set 1 — cell line: mouse MPNST tumor cells; technique: high-content nuclear imaging; measured: cell number; tested at: 10 µM; time: 12 h; setting: mean of 2 replicates; reference: plate mean; direction: higher = more cells
Compound	nuclei count
N#Cc1c(NC(=O)c2cccc3ccccc23)sc2c1CCCC2	-4.35 z-score
CC(C)(O/N=C(\C(=O)N[C@@H]1C(=O)N2C(C(=O)[O-])=C(C[n+]3ccccc3)CS[C@H]12)c1csc(N)n1)C(=O)O	-0.319 z-score
CCCN(CCC)C(=O)C(CCC(=O)O)NC(=O)c1ccccc1 (stereo not shown)	2.41 z-score
O=C(c1ccc(Cl)cc1)N(Cc1ccccc1)C1CCCCC1	-0.452 z-score
CCOC(=O)C1=C(C)NC(C)=C(C(=O)OC)C1c1cccc([N+](=O)[O-])c1 (stereo not shown)	0.369 z-score and -0.171 z-score

Set 2 — observed: enzyme activity; tested at: 5 µM
Structure (SMILES): O=C(Nc1cnn(-c2csc(C(=O)NC3COC3)c2)c1)Nc1ccccc1Cl
target	action	reference	remaining activity
Ribosomal protein S6 kinase beta-2 (RPS6KB2, Homo sapiens, UniProt Q9UBS0)	inhibitor		94.2%
Mitogen-activated protein kinase 8 (MAPK8, Homo sapiens, UniProt P45983)		untreated control	55.9%
Angiopoietin-1 receptor (TEK, Homo sapiens, UniProt Q02763)		untreated control	97.2%
Testis-specific serine/threonine-protein kinase 6 (TSSK6, Homo sapiens, UniProt Q9BXA6)		untreated control	102%
Serine/threonine-protein kinase SIK3 (SIK3, Homo sapiens, UniProt Q9Y2K2)		untreated control	91.6%
Kinase suppressor of Ras 1 (KSR1, Homo sapiens, UniProt Q8IVT5)	inhibitor		101%

Set 3 — technique: competition with immobilised ligand; tested at: 1 µM
Compound: CCS(=O)(=O)c1cc2cc(C[C@](O)(CC(C)(C)c3ccc(F)cc3C(N)=O)C(F)(F)F)[nH]c2cn1
target	observed	remaining binding
Epidermal growth factor receptor (EGFR, Homo sapiens, UniProt P00533, G719S)	cell-free assay	100%
Serine/threonine-protein kinase 17A (STK17A, Homo sapiens, UniProt Q9UEE5)	cell-free assay	80%
Mitogen-activated protein kinase 3 (MAPK3, Homo sapiens, UniProt P27361)	cell-free assay	93%
Tyrosine-protein kinase ABL1, non-phosphorylated (ABL1, Homo sapiens, UniProt P00519, Q252H)	cell-free assay	100%
Phosphatidylinositol 5-phosphate 4-kinase type-2 beta (PIP4K2B, Homo sapiens, UniProt P78356)	cell-free assay	96%
Epidermal growth factor receptor (EGFR, Homo sapiens, UniProt P00533)	cell-free assay	81%
Wee1-like protein kinase 2 (WEE2, Homo sapiens, UniProt P0C1S8)	cell-free assay	100%
cAMP-dependent protein kinase catalytic subunit beta (PRKACB, Homo sapiens, UniProt P22694)	cell-free assay	100%
Vascular endothelial growth factor receptor 2 (KDR, Homo sapiens, UniProt P35968)	cell-free assay	83%
Serine/threonine-protein kinase 33 (STK33, Homo sapiens, UniProt Q9BYT3)	cell-free assay	97%
TRAF2 and NCK-interacting protein kinase (TNIK, Homo sapiens, UniProt Q9UKE5)	cell-free assay	100%
Tyrosine-protein kinase ABL1, non-phosphorylated (ABL1, Homo sapiens, UniProt P00519, F317I)	binding	95%
Serine/threonine-protein kinase Nek11 (NEK11, Homo sapiens, UniProt Q8NG66)	cell-free assay	93%
Rhodopsin kinase GRK7 (GRK7, Homo sapiens, UniProt Q8WTQ7)	cell-free assay	100%
Uncharacterized serine/threonine-protein kinase SBK3 (SBK3, Homo sapiens, UniProt P0C264)	cell-free assay	100%
Mitogen-activated protein kinase 10 (MAPK10, Homo sapiens, UniProt P53779)	cell-free assay	100%
Microtubule-associated serine/threonine-protein kinase 1 (MAST1, Homo sapiens, UniProt Q9Y2H9)	cell-free assay	100%

Set 4 — cell line: A-375; tested at: 100 µM; time: 18 h
Structure (SMILES)	viability [%]
CC(C)NCC(O)c1ccc(NS(C)(=O)=O)cc1 (stereo not shown)	102
N=C(N)/N=C(\N)N1CCOCC1	101
O=c1oc2cc(O)ccc2s1	102
Cc1ccc(C(=O)Nc2ccc(CN3CCN(C)CC3)c(C(F)(F)F)c2)cc1C#Cc1cnc2cccnn12	14
O=C1CCc2cc(OCCCCc3nnnn3C3CCCCC3)ccc2N1	76
CCCCC(=O)O[C@H]1CC[C@H]2[C@@H]3CCc4cc(O)ccc4[C@H]3CC[C@]12C	8.54
